{"data": "Measurements of several laboratories", "inhA": "Enoyl-[acyl-carrier-protein] reductase [NADH] (inhA, Mycobacterium tuberculosis, UniProt P9WGR1)", "Cacna1b": "Voltage-dependent N-type calcium channel subunit alpha-1B (Cacna1b, Rattus norvegicus, UniProt Q02294)", "note": "Protocols differ between the studies behind these lines. Values joined by “and” are separate records of one study, mostly repeats; a detail may differ. Numbers after ± are the reported error.", "UniProt Q8NER1, sequence (whole entry, looked up)": "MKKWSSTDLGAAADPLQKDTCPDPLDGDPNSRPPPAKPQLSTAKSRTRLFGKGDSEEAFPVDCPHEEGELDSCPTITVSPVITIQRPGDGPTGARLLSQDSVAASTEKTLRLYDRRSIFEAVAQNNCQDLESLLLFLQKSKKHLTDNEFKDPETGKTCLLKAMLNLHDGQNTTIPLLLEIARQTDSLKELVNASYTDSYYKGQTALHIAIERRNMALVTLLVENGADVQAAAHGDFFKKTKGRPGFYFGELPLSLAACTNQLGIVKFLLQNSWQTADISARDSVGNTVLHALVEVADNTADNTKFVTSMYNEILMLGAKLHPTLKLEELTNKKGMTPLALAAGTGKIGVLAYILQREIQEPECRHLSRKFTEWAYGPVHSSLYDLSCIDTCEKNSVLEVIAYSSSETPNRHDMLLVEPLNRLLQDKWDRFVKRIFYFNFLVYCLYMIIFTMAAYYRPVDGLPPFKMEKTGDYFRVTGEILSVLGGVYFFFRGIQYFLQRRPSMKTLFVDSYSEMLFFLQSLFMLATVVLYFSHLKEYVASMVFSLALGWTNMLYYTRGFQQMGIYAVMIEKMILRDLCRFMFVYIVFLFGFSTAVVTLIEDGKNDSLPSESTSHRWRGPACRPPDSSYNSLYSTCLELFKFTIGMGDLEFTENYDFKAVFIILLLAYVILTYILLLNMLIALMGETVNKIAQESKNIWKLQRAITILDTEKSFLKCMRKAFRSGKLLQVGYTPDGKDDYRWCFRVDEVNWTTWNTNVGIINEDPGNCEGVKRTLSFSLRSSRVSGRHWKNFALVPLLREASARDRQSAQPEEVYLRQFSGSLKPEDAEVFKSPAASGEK", "UniProt P9WGR1, sequence (whole entry, looked up)": "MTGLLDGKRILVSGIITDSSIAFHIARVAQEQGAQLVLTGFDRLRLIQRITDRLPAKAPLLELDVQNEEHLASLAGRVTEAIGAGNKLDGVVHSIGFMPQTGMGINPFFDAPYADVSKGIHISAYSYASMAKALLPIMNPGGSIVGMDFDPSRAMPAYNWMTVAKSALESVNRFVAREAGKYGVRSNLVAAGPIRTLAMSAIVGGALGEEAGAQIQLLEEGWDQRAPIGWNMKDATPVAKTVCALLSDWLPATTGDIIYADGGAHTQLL", "UniProt Q02294, sequence (whole entry, looked up)": "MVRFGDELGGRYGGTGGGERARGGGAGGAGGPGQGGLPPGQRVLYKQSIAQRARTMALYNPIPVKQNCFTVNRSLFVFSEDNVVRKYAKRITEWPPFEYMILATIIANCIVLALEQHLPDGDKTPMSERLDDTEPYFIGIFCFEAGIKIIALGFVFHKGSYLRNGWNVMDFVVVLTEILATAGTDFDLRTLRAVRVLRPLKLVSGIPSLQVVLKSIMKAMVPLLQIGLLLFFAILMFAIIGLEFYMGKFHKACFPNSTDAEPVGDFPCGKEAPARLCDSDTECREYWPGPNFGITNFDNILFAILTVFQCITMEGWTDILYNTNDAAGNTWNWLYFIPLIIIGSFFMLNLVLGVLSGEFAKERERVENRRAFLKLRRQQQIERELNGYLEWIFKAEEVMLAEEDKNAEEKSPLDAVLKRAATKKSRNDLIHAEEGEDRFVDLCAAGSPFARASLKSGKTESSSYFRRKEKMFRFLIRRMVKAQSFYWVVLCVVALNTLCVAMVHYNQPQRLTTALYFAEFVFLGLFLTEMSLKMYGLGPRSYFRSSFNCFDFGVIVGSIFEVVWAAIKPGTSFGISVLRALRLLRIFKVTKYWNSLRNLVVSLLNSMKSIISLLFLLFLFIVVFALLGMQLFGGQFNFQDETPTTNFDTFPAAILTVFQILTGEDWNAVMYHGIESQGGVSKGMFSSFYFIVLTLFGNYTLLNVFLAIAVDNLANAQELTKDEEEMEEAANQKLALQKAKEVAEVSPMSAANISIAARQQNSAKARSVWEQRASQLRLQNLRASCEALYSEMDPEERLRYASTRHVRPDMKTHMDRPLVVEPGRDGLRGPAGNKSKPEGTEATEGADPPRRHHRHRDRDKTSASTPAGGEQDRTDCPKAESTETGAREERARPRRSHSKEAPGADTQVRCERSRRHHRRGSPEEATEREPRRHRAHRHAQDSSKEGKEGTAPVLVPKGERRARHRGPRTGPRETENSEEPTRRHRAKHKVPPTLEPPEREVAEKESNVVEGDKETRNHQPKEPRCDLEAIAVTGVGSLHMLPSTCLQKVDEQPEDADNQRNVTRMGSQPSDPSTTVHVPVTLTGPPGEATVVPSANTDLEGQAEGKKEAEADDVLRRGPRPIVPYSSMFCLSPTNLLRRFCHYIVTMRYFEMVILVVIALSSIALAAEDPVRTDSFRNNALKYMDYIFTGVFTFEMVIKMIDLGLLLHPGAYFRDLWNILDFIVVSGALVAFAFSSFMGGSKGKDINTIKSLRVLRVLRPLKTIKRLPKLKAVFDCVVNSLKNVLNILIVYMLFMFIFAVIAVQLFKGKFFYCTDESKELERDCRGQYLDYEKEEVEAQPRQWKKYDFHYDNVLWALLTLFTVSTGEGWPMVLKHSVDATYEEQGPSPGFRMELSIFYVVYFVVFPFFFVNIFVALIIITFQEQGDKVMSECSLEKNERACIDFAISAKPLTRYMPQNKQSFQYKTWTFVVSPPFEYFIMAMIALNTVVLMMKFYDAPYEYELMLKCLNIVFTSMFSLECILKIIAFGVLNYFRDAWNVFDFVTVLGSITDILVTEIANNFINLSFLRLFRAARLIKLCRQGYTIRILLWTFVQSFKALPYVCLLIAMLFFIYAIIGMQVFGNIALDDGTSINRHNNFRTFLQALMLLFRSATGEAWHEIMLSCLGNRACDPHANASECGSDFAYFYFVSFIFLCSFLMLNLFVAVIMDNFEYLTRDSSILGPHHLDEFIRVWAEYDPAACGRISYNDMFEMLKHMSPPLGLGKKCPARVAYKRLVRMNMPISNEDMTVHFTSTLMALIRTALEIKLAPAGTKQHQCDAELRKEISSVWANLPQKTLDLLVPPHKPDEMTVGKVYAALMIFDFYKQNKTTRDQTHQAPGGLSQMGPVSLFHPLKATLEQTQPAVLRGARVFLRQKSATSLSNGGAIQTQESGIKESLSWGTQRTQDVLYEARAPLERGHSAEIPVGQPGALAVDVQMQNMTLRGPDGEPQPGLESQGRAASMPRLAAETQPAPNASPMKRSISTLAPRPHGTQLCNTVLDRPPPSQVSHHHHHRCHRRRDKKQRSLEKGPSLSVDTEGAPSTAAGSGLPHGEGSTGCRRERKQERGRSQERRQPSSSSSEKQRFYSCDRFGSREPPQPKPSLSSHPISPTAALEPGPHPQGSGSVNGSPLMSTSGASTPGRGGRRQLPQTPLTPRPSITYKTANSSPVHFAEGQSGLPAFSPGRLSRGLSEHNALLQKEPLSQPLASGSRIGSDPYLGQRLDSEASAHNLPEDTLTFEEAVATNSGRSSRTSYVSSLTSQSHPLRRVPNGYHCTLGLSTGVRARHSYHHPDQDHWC", "UniProt P28564, sequence (whole entry, looked up)": "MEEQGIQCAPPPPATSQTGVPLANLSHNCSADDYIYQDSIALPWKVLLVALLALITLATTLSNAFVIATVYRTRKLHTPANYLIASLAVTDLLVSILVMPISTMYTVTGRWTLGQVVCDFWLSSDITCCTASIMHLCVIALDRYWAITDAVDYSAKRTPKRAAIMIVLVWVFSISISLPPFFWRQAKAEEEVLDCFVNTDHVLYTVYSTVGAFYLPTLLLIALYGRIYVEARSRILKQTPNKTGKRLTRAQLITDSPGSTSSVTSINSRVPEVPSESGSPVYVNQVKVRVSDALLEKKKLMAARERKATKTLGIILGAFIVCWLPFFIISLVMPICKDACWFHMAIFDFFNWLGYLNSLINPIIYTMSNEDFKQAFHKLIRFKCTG", "UniProt O94804, sequence (whole entry, looked up)": "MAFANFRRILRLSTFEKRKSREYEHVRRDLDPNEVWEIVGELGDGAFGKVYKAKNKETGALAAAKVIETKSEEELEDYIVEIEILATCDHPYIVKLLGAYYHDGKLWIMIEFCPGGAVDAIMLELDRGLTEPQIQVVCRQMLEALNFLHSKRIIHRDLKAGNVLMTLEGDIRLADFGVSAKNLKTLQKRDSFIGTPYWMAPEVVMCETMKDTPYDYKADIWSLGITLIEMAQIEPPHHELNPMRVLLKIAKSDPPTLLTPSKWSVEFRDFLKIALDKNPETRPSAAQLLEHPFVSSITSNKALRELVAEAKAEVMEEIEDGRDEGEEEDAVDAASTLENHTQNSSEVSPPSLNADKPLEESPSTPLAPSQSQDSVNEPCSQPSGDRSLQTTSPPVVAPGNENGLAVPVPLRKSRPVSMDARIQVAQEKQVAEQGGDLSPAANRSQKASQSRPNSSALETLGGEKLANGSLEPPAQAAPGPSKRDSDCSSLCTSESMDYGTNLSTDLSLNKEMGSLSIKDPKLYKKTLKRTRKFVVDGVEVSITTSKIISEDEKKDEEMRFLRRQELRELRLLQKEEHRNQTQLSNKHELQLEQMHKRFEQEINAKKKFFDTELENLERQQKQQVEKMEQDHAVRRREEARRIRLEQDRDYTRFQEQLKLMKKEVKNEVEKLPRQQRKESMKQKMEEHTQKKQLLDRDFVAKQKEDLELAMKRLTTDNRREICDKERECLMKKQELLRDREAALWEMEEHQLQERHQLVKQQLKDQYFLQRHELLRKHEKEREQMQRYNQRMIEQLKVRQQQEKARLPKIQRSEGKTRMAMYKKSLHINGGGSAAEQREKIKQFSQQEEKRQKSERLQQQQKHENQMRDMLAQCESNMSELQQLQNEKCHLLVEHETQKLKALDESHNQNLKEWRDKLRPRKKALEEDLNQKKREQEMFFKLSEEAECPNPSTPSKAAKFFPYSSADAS"}
{"Compound": "CN[C@@H]1[C@H](O)[C@H](NC)[C@H]2O[C@]3(O)[C@H](O[C@@H]2[C@H]1O)O[C@H](C)C[C@H]3NC(=O)Cc1ccc(Cl)cn1", "target or system": "ATP-binding cassette sub-family C member 8 (ABCC8, Cricetus cricetus, UniProt Q09427)", "conditions": "10 µM", "measurement": "inhibition", "value": "3%"}
{"Compound": "CCCCCCNCc1ccc(Oc2ccc(Cl)cc2Cl)c(O)c1", "target or system": "inhA", "test": "enzyme activity, inhibitor", "conditions": "concentration not given", "measurement": "inhibition", "value": "73 ± 0.4%"}
{"Compound": "CC(C)c1nc2cc(O)ccc2c(=O)n1-c1ccc(C#N)cc1", "target or system": "TRPV1 (Homo sapiens, UniProt Q8NER1)", "test": "ion current, whole-cell patch clamp", "test system": "HEK-293T", "conditions": "1 µM, pH 5", "measurement": "inhibition", "value": "67.2% and 65.2% and 50.4% and 89.7% and 82.2% and 58.2%"}
{"Compound": "Cc1sc2c(c1C)C(c1ccc(Cl)cc1)=NC(CC(=O)OC(C)(C)C)c1nnc(C)n1-2 (stereo not shown)", "target or system": "Htr1b (Rattus norvegicus, UniProt P28564)", "test": "ligand displacement, radioligand", "conditions": "1 µM", "measurement": "inhibition", "value": "-4%"}
{"Compound": "O=C1NC2(CC2)COc2ncc(F)cc2[C@H]2COCCN2c2ccn3ncc1c3n2", "test system": "Sprague-Dawley rat, male, spleen", "conditions": "oral, 10 mg/kg/day, 4 weeks dosing, end of recovery", "measurement": "organ-to-brain weight ratio", "value": "53 ± 9.13%"}
{"Compound": "C[Si](C)(C)C[C@H](CN)CC(=O)O", "target or system": "Cacna1b", "test": "cell-free assay, inhibitor", "conditions": "250 µM", "measurement": "inhibition", "value": "-3%"}
{"Compound": "CN(C)[C@H]1C[C@@]23CC[C@@]4(O2)C(=CC[C@]2(C)[C@@H](c5ccc6ccncc6c5)CC[C@H]24)C=C3[C@@H](O)[C@@H]1O", "target or system": "STK10 (Homo sapiens, UniProt O94804)", "test": "ATP probe labelling, inhibitor, KiNativ profiling", "conditions": "0.1 µM", "measurement": "inhibition", "value": "1.7%"}
{"Compound": "CCN(CC)C(=O)[C@@H]1C=C2c3cccc4c3c(cn4C(=O)c3ccco3)C[C@H]2N(C)C1", "target or system": "DRD5 (Homo sapiens, UniProt P21918)", "test": "radioligand binding", "conditions": "10 µM", "measurement": "inhibition", "value": "< 50%"}
{"Compound": "CCCCCCNCc1ccc(Oc2ccc(Cl)cc2O)c(Cl)c1", "target or system": "inhA", "test": "enzyme activity, inhibitor", "conditions": "concentration not given", "measurement": "inhibition", "value": "38 ± 0.15%"}
{"Compound": "C[Si]1(C[C@H](CN)CC(=O)O)CCCC1", "target or system": "Cacna1b", "test": "cell-free assay, inhibitor", "conditions": "70 µM", "measurement": "inhibition", "value": "1%"}
{"Compound": "N#Cc1ccc(Oc2ccc(Cl)cc2Cl)c(O)c1", "target or system": "inhA", "test": "enzyme activity, inhibitor", "conditions": "concentration not given", "measurement": "inhibition", "value": "97 ± 0.06%"}
{"Compound": "CS(C)(=O)=Nc1ccc(-c2ccc(-c3nc4cc(O[C@@H]5CO[C@H]6[C@@H]5OC[C@H]6O)[nH]c4cc3F)cc2)cc1", "target or system": "CSF1R (Homo sapiens, UniProt P07333)", "test": "enzyme activity, inhibitor", "conditions": "10 µM", "measurement": "inhibition", "value": "6%"}
{"Compound": "CC(C)[C@H]1NC(=O)C[C@H]2/C=C/CCSSC[C@@H](NC1=O)C(=O)N[C@H](Cc1cccc3ccccc13)C(=O)NCC(=O)O2", "target or system": "MUSK (Homo sapiens, UniProt O15146)", "test": "enzyme activity, inhibitor", "conditions": "10 µM", "measurement": "inhibition", "value": "-2.9%"}
{"note": "Some of these lines once more:"}
{"Compound": "CCN(CC)C(=O)[C@@H]1C=C2c3cccc4c3c(cn4C(=O)c3ccco3)C[C@H]2N(C)C1", "target or system": "DRD5 (Homo sapiens, UniProt P21918)", "test": "radioligand binding", "conditions": "10 µM", "measurement": "inhibition", "value": "< 50%"}
{"Compound": "CCCCCCNCc1ccc(Oc2ccc(Cl)cc2O)c(Cl)c1", "target or system": "inhA", "test": "enzyme activity, inhibitor", "conditions": "concentration not given", "measurement": "inhibition", "value": "38 ± 0.15%"}
